Experimental data from different studies.
Each line is one published result; not all experiments were run side by side. Numbers after ± are the reported error.
USP16 ZnF-UBD domain: Ubiquitin carboxyl-terminal hydrolase 16, ZnF-UBD domain (USP16, Homo sapiens, UniProt Q9Y5T5)
Sequence of UniProt Q9NPD5 (whole entry, unmodified, looked up): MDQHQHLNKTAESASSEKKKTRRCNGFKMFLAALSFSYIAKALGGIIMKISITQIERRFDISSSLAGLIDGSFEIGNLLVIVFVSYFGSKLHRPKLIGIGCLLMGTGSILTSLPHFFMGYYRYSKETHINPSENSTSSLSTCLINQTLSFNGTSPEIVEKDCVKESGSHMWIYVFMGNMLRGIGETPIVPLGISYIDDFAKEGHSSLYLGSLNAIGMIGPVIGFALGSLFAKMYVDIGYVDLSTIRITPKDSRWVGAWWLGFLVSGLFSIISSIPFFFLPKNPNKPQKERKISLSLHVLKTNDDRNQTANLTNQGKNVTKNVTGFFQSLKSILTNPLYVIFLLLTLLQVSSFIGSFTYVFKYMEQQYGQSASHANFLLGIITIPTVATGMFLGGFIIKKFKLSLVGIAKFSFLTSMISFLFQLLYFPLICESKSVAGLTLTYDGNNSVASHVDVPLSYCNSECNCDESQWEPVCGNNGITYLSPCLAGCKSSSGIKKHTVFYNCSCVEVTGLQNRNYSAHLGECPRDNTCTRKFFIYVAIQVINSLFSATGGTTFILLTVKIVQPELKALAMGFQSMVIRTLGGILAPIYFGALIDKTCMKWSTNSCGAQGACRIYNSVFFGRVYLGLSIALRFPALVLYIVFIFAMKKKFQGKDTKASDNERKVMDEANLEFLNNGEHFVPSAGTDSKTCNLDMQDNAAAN
Sequence of UniProt Q9Y5T5 (whole entry, looked up): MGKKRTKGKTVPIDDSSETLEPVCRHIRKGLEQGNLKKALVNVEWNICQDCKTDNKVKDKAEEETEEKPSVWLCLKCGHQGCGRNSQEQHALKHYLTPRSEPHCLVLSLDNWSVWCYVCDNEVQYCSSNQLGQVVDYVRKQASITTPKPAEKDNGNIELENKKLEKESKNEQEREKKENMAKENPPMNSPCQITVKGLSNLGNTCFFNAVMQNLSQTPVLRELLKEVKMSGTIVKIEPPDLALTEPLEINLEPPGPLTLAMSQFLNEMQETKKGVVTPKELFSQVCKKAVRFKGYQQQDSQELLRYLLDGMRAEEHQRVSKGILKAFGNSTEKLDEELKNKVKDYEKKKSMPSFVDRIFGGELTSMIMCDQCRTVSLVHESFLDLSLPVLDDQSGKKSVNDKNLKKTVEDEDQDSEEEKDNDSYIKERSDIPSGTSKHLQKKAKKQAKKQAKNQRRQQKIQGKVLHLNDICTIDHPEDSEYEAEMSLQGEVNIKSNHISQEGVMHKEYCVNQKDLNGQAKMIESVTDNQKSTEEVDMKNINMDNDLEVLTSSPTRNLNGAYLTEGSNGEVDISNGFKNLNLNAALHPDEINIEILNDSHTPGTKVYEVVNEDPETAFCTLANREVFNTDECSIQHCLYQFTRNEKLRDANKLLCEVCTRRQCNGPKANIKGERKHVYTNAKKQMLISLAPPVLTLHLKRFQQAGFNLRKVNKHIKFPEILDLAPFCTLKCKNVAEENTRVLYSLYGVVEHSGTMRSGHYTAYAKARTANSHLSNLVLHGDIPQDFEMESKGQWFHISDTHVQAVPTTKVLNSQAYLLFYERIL
Sequence of UniProt P10635 (whole entry, looked up): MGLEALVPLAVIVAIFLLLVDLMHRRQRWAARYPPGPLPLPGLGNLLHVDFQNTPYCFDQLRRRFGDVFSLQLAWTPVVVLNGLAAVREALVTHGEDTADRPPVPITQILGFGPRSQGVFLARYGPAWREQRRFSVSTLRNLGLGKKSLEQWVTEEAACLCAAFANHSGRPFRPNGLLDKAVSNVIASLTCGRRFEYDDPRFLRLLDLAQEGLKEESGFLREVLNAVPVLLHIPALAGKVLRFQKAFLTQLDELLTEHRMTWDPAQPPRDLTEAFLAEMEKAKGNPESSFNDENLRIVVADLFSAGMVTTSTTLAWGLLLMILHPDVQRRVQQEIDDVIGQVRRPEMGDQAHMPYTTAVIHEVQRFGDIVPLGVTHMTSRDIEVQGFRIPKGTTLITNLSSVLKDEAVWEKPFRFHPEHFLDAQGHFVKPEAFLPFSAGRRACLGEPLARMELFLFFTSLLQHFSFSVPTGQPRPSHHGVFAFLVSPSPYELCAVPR
Sequence of UniProt P08684 (whole entry, looked up): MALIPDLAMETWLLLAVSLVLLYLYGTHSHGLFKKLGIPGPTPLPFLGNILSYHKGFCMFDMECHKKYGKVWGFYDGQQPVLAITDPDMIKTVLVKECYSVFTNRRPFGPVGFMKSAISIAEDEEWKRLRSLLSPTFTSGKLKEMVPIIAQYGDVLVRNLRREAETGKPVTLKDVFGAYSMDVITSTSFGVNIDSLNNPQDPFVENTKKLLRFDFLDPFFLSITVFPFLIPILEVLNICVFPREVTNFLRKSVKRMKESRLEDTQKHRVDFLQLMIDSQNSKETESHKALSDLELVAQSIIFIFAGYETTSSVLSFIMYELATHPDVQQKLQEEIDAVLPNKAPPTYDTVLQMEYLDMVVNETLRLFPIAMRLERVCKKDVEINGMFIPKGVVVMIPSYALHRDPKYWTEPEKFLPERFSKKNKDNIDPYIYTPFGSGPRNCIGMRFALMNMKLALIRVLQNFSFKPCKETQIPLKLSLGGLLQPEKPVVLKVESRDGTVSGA

CCc1cc(/C(C)=N/OCc2ccc(C3CCCCC3)c(C(F)(F)F)c2)ccc1CN1CC(C(=O)O)C1
maximal inhibition (SLCO1B3 (Homo sapiens, UniProt Q9NPD5); inhibitor; HEK293 transfected with SLCO1B3; 16.8 µM, 3 min, with: estradiol-17β-glucuronide 1 µM): 87%

CC(=O)N[C@H]1C(O)O[C@H](CO)[C@@H](O)[C@@H]1O[C@H](C)C(=O)O (some centres unmarked)
log2 fold change (binding, MIDAS equilibrium dialysis LC-MS; A2AR-BRIL thermostabilized; concentration not given; relative to: no-protein control): -0.573

N#C[C@H](C[C@@H]1CCCNC1=O)NC(=O)[C@H](CC1CC1)NC(=O)c1cc2cccc(Cl)c2[nH]1
half-life (Cytochrome P450 2D6 (CYP2D6, Homo sapiens, UniProt P10635); NADPH metabolic stability; 2 µM, pH 7.4, 37 °C, 100 pmol/mL enzyme): 48.8 min

CNC(=O)c1cc(Oc2ccc(NC(=O)Nc3ccc(Cl)c(C(F)(F)F)c3)cc2)ccn1
Km (SLCO1B3 (Homo sapiens, UniProt Q9NPD5, M233I); substrate, uptake; HEK293-A stably expressing SLCO1B3; 2 min): 43.9 µM

CC(C)Nc1ccnc(Nc2cccc(C(C)(C)C)c2)n1
efflux ratio (P-glycoprotein (human MDR1); MDR1-MDCKII; 10 µM, 1 h, pH 7.4; relative to: B-A over A-B): 0.81

CC(C)n1c(/C=C/C(O)CC(O)CC(=O)O)c(-c2ccc(F)cc2)c2ccccc21 (centres unmarked)
Km (SLCO1B3 (Homo sapiens, UniProt Q9NPD5, S112A); substrate, uptake; HEK293-A stably expressing SLCO1B3; 2 min): 8.43 µM

CC[C@H](C)CCCCC(=O)N[C@@H](CCN)C(=O)N[C@H](C(=O)N[C@@H](CCN)C(=O)N[C@H]1CCNC(=O)[C@H]([C@@H](C)O)NC(=O)[C@H](CCN)NC(=O)[C@H](CCN)NC(=O)[C@H](CC(C)C)NC(=O)[C@@H](Cc2ccccc2)NC(=O)[C@H](CCN)NC1=O)[C@@H](C)O
fu (plasma proteins; equilibrium dialysis; human, normal renal function, plasma; intravenous, 0.75 mg/kg, 4 h, 37 °C): 0.047

CC[C@H]1[C@@H](O)[C@@H]2[C@H](CC[C@]3(C)[C@@H]([C@H](C)CCNC(=O)NS(=O)(=O)c4ccc(C(C)(C)C)cc4)CC[C@@H]23)[C@@]2(C)CC[C@@H](O)C[C@@H]12
CL/F (Cytochrome P450 3A4 (CYP3A4, Homo sapiens, UniProt P08684); human, plasma; geometric mean, alone): 12.2 L/h

CC(C)c1nc(N(C)S(C)(=O)=O)nc(-c2ccc(F)cc2)c1/C=C/[C@@H](O)C[C@@H](O)CC(=O)O
Km (SLCO1B3 (Homo sapiens, UniProt Q9NPD5, M233I/S112A); substrate, uptake; HEK293-A stably expressing SLCO1B3; 2 min): 9.11 µM

COC(=O)c1cccc(-c2cccc(Nc3nccc(NC4CCCCC4)n3)c2)c1
Papp (B-A) (P-glycoprotein (human MDR1); MDR1-MDCKII; 10 µM, 1 h, pH 7.4): 0.076 ± 0.054 ×10⁻⁶ cm/s

O=C(O)CCc1nccs1
Kd (USP16 ZnF-UBD domain): 331 µM

Nc1nc2c(ncn2[C@H]2C[C@H](O)[C@@H](CO)O2)c(=O)[nH]1
log2 fold change (binding, MIDAS equilibrium dialysis LC-MS; A2AR-BRIL thermostabilized; concentration not given; relative to: no-protein control): 0.142

COc1cccc(-c2cccc(Nc3nccc(NC(C)C)n3)c2)c1
efflux ratio (P-glycoprotein (human MDR1); MDR1-MDCKII; 10 µM, 1 h, pH 7.4; relative to: B-A over A-B): 2.14

O=C(O)CCc1cnccn1
Kd (USP16 ZnF-UBD domain): > 1000 µM

Excerpt of the above:
CC(=O)N[C@H]1C(O)O[C@H](CO)[C@@H](O)[C@@H]1O[C@H](C)C(=O)O (some centres unmarked)
log2 fold change (binding, MIDAS equilibrium dialysis LC-MS; A2AR-BRIL thermostabilized; concentration not given; relative to: no-protein control): -0.573

N#C[C@H](C[C@@H]1CCCNC1=O)NC(=O)[C@H](CC1CC1)NC(=O)c1cc2cccc(Cl)c2[nH]1
half-life (Cytochrome P450 2D6 (CYP2D6, Homo sapiens, UniProt P10635); NADPH metabolic stability; 2 µM, pH 7.4, 37 °C, 100 pmol/mL enzyme): 48.8 min
